{"data": "Measurements collected from several papers", "note": "A part holds a random share of what one study measured. “And” joins repeats or separate records; there may be more than shown.", "sequence of UniProt O95747 (whole entry, looked up)": "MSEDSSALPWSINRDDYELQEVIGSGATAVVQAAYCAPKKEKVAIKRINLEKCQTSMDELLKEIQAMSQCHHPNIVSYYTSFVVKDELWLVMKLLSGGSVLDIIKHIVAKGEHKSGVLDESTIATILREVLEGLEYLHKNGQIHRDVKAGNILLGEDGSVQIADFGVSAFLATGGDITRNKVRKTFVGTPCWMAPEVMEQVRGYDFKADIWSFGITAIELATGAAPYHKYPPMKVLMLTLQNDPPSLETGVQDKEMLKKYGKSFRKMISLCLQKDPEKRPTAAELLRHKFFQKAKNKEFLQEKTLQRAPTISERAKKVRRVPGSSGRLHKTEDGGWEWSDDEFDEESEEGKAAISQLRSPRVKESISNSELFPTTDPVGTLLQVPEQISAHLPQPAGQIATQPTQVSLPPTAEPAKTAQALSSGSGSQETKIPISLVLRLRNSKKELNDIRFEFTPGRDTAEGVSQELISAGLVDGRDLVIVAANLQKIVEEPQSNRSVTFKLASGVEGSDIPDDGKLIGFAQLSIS", "sequence of UniProt Q96D53 (whole entry, looked up)": "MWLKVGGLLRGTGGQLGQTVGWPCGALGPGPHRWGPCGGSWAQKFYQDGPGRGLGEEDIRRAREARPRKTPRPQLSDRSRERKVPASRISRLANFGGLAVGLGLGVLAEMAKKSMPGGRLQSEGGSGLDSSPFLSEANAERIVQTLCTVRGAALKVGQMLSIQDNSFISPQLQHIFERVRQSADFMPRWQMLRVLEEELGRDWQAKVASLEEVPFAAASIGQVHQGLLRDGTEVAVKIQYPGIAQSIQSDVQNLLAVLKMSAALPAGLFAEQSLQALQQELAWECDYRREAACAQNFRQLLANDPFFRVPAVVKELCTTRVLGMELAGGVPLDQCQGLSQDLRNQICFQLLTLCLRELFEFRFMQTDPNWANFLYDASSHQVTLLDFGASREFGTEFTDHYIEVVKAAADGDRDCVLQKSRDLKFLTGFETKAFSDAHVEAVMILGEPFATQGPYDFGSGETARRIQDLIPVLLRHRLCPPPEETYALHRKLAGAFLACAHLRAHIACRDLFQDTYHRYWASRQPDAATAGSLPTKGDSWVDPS", "sequence of UniProt Q9P1W9 (whole entry, looked up)": "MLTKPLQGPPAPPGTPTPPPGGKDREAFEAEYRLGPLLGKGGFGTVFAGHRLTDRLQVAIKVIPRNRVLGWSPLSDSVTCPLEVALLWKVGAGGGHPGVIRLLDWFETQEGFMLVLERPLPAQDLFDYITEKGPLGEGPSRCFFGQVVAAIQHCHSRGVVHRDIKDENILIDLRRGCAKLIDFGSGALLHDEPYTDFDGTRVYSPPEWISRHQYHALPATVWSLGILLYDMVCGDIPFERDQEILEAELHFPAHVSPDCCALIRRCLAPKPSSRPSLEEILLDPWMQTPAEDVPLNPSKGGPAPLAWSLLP", "sequence of UniProt Q06187 (whole entry, looked up)": "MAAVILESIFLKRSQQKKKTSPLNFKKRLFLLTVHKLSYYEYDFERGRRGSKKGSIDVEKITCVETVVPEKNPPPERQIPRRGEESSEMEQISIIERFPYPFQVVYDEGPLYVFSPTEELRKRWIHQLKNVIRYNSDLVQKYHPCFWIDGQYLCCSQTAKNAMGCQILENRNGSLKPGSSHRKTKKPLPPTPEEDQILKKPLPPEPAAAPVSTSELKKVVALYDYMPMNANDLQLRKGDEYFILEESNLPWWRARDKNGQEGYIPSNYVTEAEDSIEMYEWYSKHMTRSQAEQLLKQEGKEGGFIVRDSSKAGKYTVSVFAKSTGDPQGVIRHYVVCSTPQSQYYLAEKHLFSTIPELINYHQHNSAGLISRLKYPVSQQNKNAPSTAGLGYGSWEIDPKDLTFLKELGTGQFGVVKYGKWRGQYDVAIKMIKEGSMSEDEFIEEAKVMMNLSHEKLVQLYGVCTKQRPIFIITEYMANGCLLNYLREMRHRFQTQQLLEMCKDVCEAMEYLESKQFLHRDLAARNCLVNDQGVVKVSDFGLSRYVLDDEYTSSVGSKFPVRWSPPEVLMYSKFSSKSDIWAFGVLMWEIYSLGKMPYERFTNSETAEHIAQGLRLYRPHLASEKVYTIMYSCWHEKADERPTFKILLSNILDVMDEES", "sequence of UniProt P49674 (whole entry, looked up)": "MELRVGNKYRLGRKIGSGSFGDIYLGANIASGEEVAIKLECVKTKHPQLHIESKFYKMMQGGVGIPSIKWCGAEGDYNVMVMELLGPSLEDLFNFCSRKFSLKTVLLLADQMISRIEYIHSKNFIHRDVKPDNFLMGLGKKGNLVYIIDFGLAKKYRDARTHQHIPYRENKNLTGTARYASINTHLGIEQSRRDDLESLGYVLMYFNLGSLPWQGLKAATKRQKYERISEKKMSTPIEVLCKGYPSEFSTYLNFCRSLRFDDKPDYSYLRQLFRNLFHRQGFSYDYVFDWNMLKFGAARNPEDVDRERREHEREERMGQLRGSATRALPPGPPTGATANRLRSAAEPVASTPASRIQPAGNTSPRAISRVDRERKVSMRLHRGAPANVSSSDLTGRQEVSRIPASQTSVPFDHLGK", "sequence of UniProt Q8NEV4 (whole entry, looked up)": "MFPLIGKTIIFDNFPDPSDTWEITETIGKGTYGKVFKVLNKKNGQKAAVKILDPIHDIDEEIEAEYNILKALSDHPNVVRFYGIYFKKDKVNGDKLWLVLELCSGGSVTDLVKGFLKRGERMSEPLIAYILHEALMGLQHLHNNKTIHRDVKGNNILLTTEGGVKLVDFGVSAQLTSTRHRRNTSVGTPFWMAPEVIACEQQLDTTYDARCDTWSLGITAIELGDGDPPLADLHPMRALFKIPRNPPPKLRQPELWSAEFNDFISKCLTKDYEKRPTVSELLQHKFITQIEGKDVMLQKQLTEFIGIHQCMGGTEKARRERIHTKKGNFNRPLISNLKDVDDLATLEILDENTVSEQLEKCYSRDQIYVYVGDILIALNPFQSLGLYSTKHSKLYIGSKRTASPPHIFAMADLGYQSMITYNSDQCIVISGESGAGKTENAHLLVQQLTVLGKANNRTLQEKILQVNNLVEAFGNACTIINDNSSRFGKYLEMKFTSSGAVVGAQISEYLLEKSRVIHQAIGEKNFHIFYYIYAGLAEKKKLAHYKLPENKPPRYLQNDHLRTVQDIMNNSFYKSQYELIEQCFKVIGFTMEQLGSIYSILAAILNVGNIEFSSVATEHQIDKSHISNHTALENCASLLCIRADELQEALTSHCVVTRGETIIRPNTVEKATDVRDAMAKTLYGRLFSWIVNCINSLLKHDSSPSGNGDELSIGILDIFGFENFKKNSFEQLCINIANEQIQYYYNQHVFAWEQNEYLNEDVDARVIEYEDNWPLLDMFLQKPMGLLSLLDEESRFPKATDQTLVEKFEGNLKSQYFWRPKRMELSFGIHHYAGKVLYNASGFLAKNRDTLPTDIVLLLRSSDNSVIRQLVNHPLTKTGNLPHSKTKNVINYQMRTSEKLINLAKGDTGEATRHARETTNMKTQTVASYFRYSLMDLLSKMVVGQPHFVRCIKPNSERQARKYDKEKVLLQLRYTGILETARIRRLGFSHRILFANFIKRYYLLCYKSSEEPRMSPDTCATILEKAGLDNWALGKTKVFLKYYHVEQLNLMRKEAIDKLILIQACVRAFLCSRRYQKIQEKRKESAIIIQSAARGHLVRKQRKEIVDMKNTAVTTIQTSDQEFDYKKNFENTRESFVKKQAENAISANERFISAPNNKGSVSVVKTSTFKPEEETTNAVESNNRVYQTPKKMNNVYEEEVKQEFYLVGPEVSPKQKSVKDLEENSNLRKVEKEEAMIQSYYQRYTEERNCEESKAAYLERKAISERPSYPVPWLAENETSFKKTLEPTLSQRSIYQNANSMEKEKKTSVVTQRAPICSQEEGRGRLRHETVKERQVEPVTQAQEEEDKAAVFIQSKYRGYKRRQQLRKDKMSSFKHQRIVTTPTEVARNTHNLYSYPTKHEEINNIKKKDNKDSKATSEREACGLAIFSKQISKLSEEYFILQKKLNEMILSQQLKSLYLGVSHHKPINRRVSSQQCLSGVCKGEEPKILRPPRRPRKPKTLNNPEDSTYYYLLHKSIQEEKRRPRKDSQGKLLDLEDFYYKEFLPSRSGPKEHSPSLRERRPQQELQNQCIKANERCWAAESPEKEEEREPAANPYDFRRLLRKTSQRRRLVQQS", "sequence of UniProt P51617 (whole entry, looked up)": "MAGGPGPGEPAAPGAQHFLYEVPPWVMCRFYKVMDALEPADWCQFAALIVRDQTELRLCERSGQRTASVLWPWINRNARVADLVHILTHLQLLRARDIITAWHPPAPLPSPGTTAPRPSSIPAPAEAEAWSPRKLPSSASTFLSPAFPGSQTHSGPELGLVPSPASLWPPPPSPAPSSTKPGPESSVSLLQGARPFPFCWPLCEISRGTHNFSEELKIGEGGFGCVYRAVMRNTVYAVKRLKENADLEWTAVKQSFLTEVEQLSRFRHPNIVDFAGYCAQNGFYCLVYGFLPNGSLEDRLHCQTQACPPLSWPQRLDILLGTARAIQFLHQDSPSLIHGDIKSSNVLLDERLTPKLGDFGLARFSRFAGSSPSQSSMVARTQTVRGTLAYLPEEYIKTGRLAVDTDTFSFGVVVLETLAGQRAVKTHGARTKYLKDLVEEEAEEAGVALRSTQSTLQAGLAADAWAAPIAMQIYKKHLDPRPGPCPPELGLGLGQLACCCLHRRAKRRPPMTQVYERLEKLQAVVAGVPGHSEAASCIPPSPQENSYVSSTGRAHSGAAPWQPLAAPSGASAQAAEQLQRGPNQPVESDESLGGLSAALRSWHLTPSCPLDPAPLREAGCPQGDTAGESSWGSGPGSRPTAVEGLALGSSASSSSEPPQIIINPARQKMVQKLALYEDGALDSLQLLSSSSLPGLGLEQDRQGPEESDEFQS"}
{"data": "Set 1", "organism": "Sarcocystis neurona", "read-out": "parasite growth", "tested at": "10 µM", "time": "96 h", "notes": "first screen", "baseline": "untreated"}
{"SMILES": "CCOc1cc(CC(=O)N[C@@H](CC(C)C)c2ccccc2N2CCCCC2)ccc1C(=O)O", "log2 fold change": -0.62}
{"SMILES": "COc1ccc(OC)c(C(O)CNC(=O)CN)c1 (stereo not shown)", "log2 fold change": 0.24}
{"SMILES": "CN1CCN(CCCN2c3ccccc3Sc3ccc(C(F)(F)F)cc32)CC1", "log2 fold change": -0.21}
{"SMILES": "Cc1nc2ccccn2c(=O)c1CCN1CCC(C(=O)c2ccc(F)cc2)CC1", "log2 fold change": -0.74}
{"SMILES": "CC(C)(C(=O)O)c1ccc(C(O)CCCN2CCC(C(O)(c3ccccc3)c3ccccc3)CC2)cc1 (stereo not shown)", "log2 fold change": 0.3}
{"SMILES": "CCOC(=O)[C@H](CCc1ccccc1)N[C@H]1CCc2ccccc2N(CC(=O)O)C1=O", "log2 fold change": 0.22}
{"SMILES": "C[n+]1ccccc1/C=N/O", "log2 fold change": 0.35}
{"data": "Set 2", "SMILES": "COc1cc(-c2cn(C3CCc4c(F)cccc4N(CC(F)(F)F)C3=O)nn2)ccc1-n1cnc(C)c1 (stereo not shown)", "technique": "competition with immobilised ligand", "tested at": "1 µM"}
{"target": "MAPK10 (Homo sapiens, UniProt P53779)", "read-out": "cell-free assay", "remaining binding": "72%"}
{"target": "EPHB4 (Homo sapiens, UniProt P54760)", "read-out": "cell-free assay", "remaining binding": "100%"}
{"target": "MAPK13 (Homo sapiens, UniProt O15264)", "read-out": "cell-free assay", "remaining binding": "100%"}
{"target": "Tyrosine-protein kinase ABL1, phosphorylated (ABL1, Homo sapiens, UniProt P00519, E255K)", "read-out": "binding", "remaining binding": "100%"}
{"target": "CAMKK1 (Homo sapiens, UniProt Q8N5S9)", "read-out": "cell-free assay", "remaining binding": "100%"}
{"target": "Tyrosine-protein kinase ABL1, non-phosphorylated (ABL1, Homo sapiens, UniProt P00519, Q252H)", "read-out": "cell-free assay", "remaining binding": "95%"}
{"target": "PDPK1 (Homo sapiens, UniProt O15530)", "read-out": "cell-free assay", "remaining binding": "93%"}
{"target": "CASK (Homo sapiens, UniProt O14936)", "read-out": "cell-free assay", "remaining binding": "71%"}
{"target": "Tyrosine-protein kinase ABL1, phosphorylated (ABL1, Homo sapiens, UniProt P00519, T315I)", "read-out": "cell-free assay", "remaining binding": "83%"}
{"target": "COQ8B (Homo sapiens, UniProt Q96D53)", "read-out": "cell-free assay", "remaining binding": "77%"}
{"target": "MAP3K10 (Homo sapiens, UniProt Q02779)", "read-out": "cell-free assay", "remaining binding": "100%"}
{"target": "MAP2K5 (Homo sapiens, UniProt Q13163)", "read-out": "cell-free assay", "remaining binding": "58%"}
{"target": "IRAK1 (Homo sapiens, UniProt P51617)", "read-out": "cell-free assay", "remaining binding": "100%"}
{"target": "MAPK7 (Homo sapiens, UniProt Q13164)", "read-out": "cell-free assay", "remaining binding": "80%"}
{"target": "Myosin-IIIa (MYO3A, Homo sapiens, UniProt Q8NEV4)", "read-out": "cell-free assay", "remaining binding": "100%"}
{"target": "TIE1 (Homo sapiens, UniProt P35590)", "read-out": "cell-free assay", "remaining binding": "100%"}
{"target": "PIM2 (Homo sapiens, UniProt Q9P1W9)", "read-out": "cell-free assay", "remaining binding": "100%"}
{"target": "BTK (Homo sapiens, UniProt Q06187)", "read-out": "cell-free assay", "remaining binding": "100%"}
{"target": "PRKD2 (Homo sapiens, UniProt Q9BZL6)", "read-out": "cell-free assay", "remaining binding": "100%"}
{"target": "MARK2 (Homo sapiens, UniProt Q7KZI7)", "read-out": "cell-free assay", "remaining binding": "100%"}
{"target": "OXSR1 (Homo sapiens, UniProt O95747)", "read-out": "cell-free assay", "remaining binding": "100%"}
{"target": "RET (Homo sapiens, UniProt P07949, V804L)", "read-out": "cell-free assay", "remaining binding": "100%"}
{"target": "CSK (Homo sapiens, UniProt P41240)", "read-out": "cell-free assay", "remaining binding": "100%"}
{"target": "MAPK15 (Homo sapiens, UniProt Q8TD08)", "read-out": "cell-free assay", "remaining binding": "78%"}
{"target": "RIOK2 (Homo sapiens, UniProt Q9BVS4)", "read-out": "cell-free assay", "remaining binding": "100%"}
{"data": "Set 3", "cell line": "HaCaT", "tested at": "100 µM", "time": "36 h"}
{"SMILES": "CCN(CC)CCOCCOC(=O)C1(c2ccccc2)CCCC1", "viability [%]": 69.1}
{"SMILES": "Cc1cc(C#N)cc(C)c1Oc1nc(Nc2ccc(C#N)cc2)nc(N)c1Br", "viability [%]": 78.9}
{"SMILES": "CCCCNc1cc(C(=O)O)cc(S(N)(=O)=O)c1Oc1ccccc1", "viability [%]": 100}
{"SMILES": "CC1=NS(=O)(=O)c2cc(Cl)ccc2N1", "viability [%]": 91}
{"data": "Set 4", "SMILES": "Cc1cc2c(C(N)=O)c(N)n(-c3c(C)ccc(O)c3C)c2nc1C", "technique": "KINOMEscan", "tested at": "1000 nM", "baseline": "control"}
{"target": "PIK4CB", "remaining binding [%]": 100}
{"target": "CSNK2A2", "remaining binding [%]": 100}
{"target": "RAF1", "remaining binding [%]": 2.8}
{"target": "CASK", "remaining binding [%]": 69}
{"data": "Set 5", "Structure (SMILES)": "CC(C)n1cnc(-c2ccc(F)cc2)c1-c1ncc(C(=O)Nc2ccc(N3CCN(C)CC3)cc2)[nH]1", "technique": "phase 2a trial", "host": "idiopathic pulmonary fibrosis patients"}
{"dose": "60 mg once daily", "notes": "adverse event grade 5", "patients with cholecystitis [%]": 0}
{"dose": "dose not given", "notes": "adverse event grade 1, all dose arms pooled", "patients with cholecystitis [%]": 0}
{"dose": "30 mg once daily", "notes": "adverse event grade 3", "patients with cholecystitis [%]": 0}
{"data": "Set 6", "Compound": "COc1cc(C(=O)N2CCC(N3CCN(C)CC3)CC2)ccc1Nc1ncc2c(n1)N(C)c1ccccc1C(=O)N2C"}
{"target": "BRSK2 (mouse)", "test": "probe labelling, KiNativ ATP probe", "test system": "mouse brain lysate", "conditions": "1 µM, LYS2 labelled site", "inhibition [%]": 10.2}
{"target": "MARK1 (mouse)", "test": "probe labelling, KiNativ ATP probe", "test system": "mouse brain lysate", "conditions": "0.1 µM, LYS1 labelled site", "inhibition [%]": 15.9}
{"target": "ILK (mouse)", "test": "probe labelling, KiNativ, item: WQGNDIVVkVLK peptide, LYS1 site", "test system": "brain tissue lysate (mouse)", "conditions": "1 µM, with: ATP acyl-phosphate probe", "inhibition [%]": 6.4}
{"target": "MLK2 (mouse)", "test": "probe labelling, KiNativ ADP probe", "test system": "mouse brain lysate", "conditions": "0.1 µM, LYS1 labelled site", "inhibition [%]": 6.9}
{"target": "MST4 and YSK1 human", "test": "KiNativ profiling", "test system": "human PBMC", "conditions": "1 µM, LYS2 site, with: ADP acyl phosphate probe", "inhibition [%]": 11.7}
{"target": "mouse BRSK2 and CHK1", "test": "probe labelling, KiNativ ADP probe", "test system": "mouse brain lysate", "conditions": "0.1 µM, LYS2 site DIkPENLLLDER", "inhibition [%]": 14.8}
{"target": "RSKL1 domain 1 (mouse)", "test": "probe labelling, inhibitor, KiNativ ActivX ADP probe", "test system": "mouse brain lysate", "conditions": "1 µM, kinase domain peptide", "inhibition [%]": -11.5}
{"data": "Mixed results"}
{"Structure (SMILES)": "Cc1nc(-c2ccccc2)c(-c2ccncc2)o1", "tested on": "CSNK1E (Homo sapiens, UniProt P49674)", "test": "enzyme activity, inhibitor, radiometric", "endpoint": "IC50", "value": "3.36 µM"}
{"Structure (SMILES)": "CC(=O)N[C@@H](Cc1c[nH]c2ccccc12)C(=O)N[C@@H](CCC(=O)C=[N+]=[N-])C(=O)OC(C)C", "test": "UPLC-MS/MS", "test system": "EL4 tumor, C57BL/6 CES1-/- mice, tumor", "conditions": "subcutaneous, 0.3 mg/kg DON equivalent daily, 5 days", "how to read": "higher = more metabolite", "endpoint": "spermidine level", "value": "4.26e+07 a.u. and 5.48e+07 a.u. and 3.58e+07 a.u. and 4.29e+07 a.u. and 5.39e+07 a.u."}
{"note": "Excerpt of the above (set 5):"}
{"dose": "60 mg once daily", "notes": "adverse event grade 5", "patients with cholecystitis [%]": 0}
{"dose": "dose not given", "notes": "adverse event grade 1, all dose arms pooled", "patients with cholecystitis [%]": 0}
{"dose": "30 mg once daily", "notes": "adverse event grade 3", "patients with cholecystitis [%]": 0}
